Measurements collected from several papers.
Lines come from different studies, so protocols differ. ± marks the error that the study gave.
BCHE: Cholinesterase (BCHE, Homo sapiens, UniProt P06276)
Chain of UniProt P06276 (whole entry, looked up): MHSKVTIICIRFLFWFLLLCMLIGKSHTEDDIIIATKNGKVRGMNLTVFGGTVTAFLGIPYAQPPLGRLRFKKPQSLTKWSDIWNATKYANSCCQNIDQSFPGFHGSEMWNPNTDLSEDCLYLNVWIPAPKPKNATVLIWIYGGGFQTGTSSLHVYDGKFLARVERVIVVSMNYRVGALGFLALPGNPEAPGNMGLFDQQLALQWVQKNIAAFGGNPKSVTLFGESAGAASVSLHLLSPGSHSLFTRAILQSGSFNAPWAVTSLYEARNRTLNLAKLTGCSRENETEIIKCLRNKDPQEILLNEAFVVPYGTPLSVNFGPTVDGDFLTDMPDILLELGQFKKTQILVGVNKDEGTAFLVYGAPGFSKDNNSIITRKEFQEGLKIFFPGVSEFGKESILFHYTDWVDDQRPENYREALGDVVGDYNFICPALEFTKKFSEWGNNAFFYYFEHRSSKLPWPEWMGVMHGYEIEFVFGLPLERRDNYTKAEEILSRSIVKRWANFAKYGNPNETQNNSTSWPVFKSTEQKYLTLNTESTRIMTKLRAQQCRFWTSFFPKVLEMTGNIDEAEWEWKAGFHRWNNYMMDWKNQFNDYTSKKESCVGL
Chain of UniProt P35367 (whole entry, looked up): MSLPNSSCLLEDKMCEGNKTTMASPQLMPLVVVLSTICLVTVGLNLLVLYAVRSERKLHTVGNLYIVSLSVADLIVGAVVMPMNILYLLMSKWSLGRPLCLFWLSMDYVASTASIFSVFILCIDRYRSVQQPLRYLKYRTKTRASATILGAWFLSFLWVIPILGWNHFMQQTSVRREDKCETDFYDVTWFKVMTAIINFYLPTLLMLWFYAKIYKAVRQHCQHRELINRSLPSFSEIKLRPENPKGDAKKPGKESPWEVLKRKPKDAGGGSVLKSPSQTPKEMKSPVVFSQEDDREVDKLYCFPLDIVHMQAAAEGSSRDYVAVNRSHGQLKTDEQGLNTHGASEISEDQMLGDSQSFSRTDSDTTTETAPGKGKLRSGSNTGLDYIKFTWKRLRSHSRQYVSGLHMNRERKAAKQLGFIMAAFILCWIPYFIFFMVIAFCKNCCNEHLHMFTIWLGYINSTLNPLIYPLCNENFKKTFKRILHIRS
Chain of UniProt P08173 (whole entry, looked up): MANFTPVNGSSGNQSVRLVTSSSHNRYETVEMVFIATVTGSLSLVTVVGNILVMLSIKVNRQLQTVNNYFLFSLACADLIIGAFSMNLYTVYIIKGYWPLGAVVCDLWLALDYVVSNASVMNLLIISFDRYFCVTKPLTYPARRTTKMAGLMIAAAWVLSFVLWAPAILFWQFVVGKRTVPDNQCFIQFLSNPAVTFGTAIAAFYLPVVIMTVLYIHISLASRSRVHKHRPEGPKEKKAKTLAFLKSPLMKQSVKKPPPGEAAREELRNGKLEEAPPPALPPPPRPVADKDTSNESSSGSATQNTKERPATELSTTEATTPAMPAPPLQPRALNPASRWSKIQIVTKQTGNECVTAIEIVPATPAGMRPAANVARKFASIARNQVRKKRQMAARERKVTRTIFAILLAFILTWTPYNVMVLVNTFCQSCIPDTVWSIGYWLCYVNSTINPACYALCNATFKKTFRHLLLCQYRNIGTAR
Chain of UniProt P06213 (whole entry, looked up): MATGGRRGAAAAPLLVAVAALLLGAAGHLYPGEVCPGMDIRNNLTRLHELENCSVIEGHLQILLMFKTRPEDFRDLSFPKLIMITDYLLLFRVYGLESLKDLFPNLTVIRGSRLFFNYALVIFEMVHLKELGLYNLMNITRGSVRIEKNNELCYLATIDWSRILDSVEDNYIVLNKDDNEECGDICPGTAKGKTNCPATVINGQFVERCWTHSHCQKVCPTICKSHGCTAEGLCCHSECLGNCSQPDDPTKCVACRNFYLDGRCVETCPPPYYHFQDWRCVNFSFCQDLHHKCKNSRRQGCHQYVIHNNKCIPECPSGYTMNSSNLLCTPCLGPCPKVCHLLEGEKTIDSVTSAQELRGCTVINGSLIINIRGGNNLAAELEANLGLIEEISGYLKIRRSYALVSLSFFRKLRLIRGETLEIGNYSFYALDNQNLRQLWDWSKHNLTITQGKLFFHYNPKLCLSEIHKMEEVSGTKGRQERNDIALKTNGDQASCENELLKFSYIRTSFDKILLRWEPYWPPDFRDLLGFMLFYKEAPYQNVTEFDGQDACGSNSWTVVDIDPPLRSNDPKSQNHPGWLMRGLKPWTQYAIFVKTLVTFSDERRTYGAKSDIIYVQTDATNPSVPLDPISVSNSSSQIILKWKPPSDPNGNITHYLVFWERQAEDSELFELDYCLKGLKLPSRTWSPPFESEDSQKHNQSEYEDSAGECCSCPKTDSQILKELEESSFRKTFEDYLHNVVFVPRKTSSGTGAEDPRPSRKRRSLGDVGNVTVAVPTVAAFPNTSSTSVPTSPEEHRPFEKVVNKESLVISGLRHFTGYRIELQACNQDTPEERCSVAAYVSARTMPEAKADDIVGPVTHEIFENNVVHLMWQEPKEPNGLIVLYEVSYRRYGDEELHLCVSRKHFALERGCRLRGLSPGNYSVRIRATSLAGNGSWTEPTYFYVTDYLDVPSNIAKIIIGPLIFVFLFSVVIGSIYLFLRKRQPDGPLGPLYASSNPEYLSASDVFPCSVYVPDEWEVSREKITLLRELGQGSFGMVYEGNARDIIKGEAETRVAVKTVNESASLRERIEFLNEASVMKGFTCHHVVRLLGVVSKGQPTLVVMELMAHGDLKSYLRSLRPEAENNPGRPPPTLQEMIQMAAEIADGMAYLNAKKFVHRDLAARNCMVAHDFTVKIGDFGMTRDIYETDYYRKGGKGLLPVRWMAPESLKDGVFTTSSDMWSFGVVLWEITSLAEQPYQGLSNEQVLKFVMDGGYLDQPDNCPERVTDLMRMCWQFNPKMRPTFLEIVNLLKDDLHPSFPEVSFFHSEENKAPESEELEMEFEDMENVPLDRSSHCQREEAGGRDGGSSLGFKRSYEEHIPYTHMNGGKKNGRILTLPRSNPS
Chain of UniProt Q96RI9 (whole entry, looked up): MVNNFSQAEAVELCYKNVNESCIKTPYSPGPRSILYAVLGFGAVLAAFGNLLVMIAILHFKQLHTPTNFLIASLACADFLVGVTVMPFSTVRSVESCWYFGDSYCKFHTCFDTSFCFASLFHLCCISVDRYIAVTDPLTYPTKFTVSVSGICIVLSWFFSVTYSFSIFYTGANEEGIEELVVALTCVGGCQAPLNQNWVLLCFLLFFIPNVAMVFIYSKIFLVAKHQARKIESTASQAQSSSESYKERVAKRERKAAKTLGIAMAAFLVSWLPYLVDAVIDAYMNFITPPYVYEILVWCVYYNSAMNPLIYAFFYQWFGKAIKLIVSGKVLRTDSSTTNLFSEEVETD
Chain of UniProt P15823 (whole entry, looked up): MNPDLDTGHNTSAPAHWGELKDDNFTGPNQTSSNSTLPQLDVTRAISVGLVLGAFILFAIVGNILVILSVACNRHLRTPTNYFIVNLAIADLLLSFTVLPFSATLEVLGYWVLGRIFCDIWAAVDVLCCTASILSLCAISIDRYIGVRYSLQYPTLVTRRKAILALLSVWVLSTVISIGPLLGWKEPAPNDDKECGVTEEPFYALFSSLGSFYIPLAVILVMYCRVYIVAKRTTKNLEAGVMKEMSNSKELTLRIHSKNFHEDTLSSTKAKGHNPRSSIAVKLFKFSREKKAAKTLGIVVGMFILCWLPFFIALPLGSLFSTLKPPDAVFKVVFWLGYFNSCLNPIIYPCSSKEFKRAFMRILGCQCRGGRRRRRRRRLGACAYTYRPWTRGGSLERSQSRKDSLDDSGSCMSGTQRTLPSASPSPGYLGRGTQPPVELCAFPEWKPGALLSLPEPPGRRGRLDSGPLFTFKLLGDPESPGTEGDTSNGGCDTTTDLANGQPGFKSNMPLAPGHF

Structure (SMILES)	tested on	assay	test system	conditions	how to read	endpoint	value
COc1ccc(N2C(=O)N(c3c(C)cccc3Cl)Cc3cnc(Nc4ccc(C5CCN(C)CC5)cc4OC)nc32)nc1	Insulin receptor (INSR, Homo sapiens, UniProt P06213)	kinase activity	–	0.5 µM	–	inhibition	18%
O=C(c1ccc(Cl)cc1)N1CCN2C(=O)N(OC(=O)N3CCOc4ccccc43)C(=O)C2C1 (stereo not shown)	Kallikrein-6 (Homo sapiens, UniProt Q92876)	MS-based ABPP	SW-620 conditioned medium	10 µM, 1 h, 37 °C	relative to: compound over DMSO, lower = more inhibition	median protein ratio	0.96
C[C@@H]1CC[C@H]2[C@@H](C)C(=O)O[C@@H]3O[C@@]4(C)CC[C@@H]1[C@]32OO4	Plasmodium falciparum	cell growth	Dd2	–	–	IC50	0.033 µM
CN(C(=O)n1cnc(-c2ccc[n+]([O-])c2)c1)C1CCCCC1	HRH1 (Homo sapiens, UniProt P35367)	radioligand binding	–	10 µM, added: [3H]pyrilamine	–	inhibition	13%
C[C@@H](C1=C(CCN(C)C)Cc2ccccc21)c1ccccn1.O=C(O)/C=C\C(=O)O	BCHE	inhibitor	–	Triton	–	efficacy	-103 ± 7.19%
CO[C@H]1C[C@@H]2CC[C@@H](C)[C@@](O)(O2)C(=O)C(=O)N2CCCC[C@H]2C(=O)O[C@H]([C@H](C)C[C@@H]2CC[C@@H](OC(=O)NCCOCCOCCOCCOCCOCCOCCOCCOCCC(=O)N3CCc4cc(Cn5nc(-c6ccc7oc(N)nc7c6)c6c(N)ncnc65)ccc4C3)[C@H](OC)C2)C[C@@H](O)[C@H](C)/C=C(\C)[C@@H](O)[C@@H](OC)C(=O)[C@H](C)C[C@H](C)/C=C/C=C/C=C/1C	–	–	patients with advanced solid tumours	intravenous, 12 mg weekly, any grade	–	abdominal pain incidence	16.7%
O[C@@](Cc1ncc(CC2(C(F)(F)F)CC2)[nH]1)(c1ccc(-n2cccn2)cc1)C(F)(F)F	BCHE	–	–	concentration not given, Triton	–	efficacy	-58.4 ± 18.9%
Fc1ccc([C@@H]2CCNC[C@H]2COc2ccc3c(c2)OCO3)cc1	Plasmodium falciparum	–	GB4	–	–	IC50	6.31 µM
COc1cc(Nc2ncc(F)c(Nc3ccc4c(n3)NC(=O)C(C)(C)O4)n2)cc(OC)c1OC	CHRM4 (Homo sapiens, UniProt P08173)	–	–	–	–	IC50	> 10 µM
C[C@H]1CN(c2n[nH]c3nc(N[C@H]4CC[C@H](NS(=O)(=O)CCC(F)(F)F)CC4)ncc23)CCO1	Nuclear pore complex protein Nup160 (Homo sapiens, UniProt Q12769)	Kinobeads competition, refers to: NUP160	–	0.8 µM, unit not given	relative to: vehicle	remaining binding	1.09
O=C(Nc1cccnn1)N1CCC(=Cc2cccc(Oc3ccc(C(F)(F)F)cn3)c2)CC1	Adra1b (Rattus norvegicus, UniProt P15823)	binding	–	50 µM, added: [3H]prazosin	–	inhibition	32%
Oc1ccc2c3c1O[C@H]1[C@@H](O)CC[C@@]4(O)[C@@H](C2)N(CC2CCC2)CC[C@]314	Trace amine-associated receptor 9 (TAAR9, Homo sapiens, UniProt Q96RI9)	β-arrestin recruitment, TANGO luminescence, refers to: TAAR9	–	concentration not given	relative to: basal luminescence	log2 fold change	0.716
O=C(O)CCC(=O)O.c1ccc(C2(c3ccccc3)CC2C2=NCCN2)cc1 (stereo not shown)	BCHE	–	–	concentration not given, Triton	–	efficacy	-101 ± 19.6%

Excerpt of the above:
Structure (SMILES)	tested on	assay	test system	conditions	how to read	endpoint	value
C[C@@H]1CC[C@H]2[C@@H](C)C(=O)O[C@@H]3O[C@@]4(C)CC[C@@H]1[C@]32OO4	Plasmodium falciparum	cell growth	Dd2	–	–	IC50	0.033 µM
